Earlier results, collected from citations in different studies.
UniProt Q8IWQ3, sequence (whole entry, looked up): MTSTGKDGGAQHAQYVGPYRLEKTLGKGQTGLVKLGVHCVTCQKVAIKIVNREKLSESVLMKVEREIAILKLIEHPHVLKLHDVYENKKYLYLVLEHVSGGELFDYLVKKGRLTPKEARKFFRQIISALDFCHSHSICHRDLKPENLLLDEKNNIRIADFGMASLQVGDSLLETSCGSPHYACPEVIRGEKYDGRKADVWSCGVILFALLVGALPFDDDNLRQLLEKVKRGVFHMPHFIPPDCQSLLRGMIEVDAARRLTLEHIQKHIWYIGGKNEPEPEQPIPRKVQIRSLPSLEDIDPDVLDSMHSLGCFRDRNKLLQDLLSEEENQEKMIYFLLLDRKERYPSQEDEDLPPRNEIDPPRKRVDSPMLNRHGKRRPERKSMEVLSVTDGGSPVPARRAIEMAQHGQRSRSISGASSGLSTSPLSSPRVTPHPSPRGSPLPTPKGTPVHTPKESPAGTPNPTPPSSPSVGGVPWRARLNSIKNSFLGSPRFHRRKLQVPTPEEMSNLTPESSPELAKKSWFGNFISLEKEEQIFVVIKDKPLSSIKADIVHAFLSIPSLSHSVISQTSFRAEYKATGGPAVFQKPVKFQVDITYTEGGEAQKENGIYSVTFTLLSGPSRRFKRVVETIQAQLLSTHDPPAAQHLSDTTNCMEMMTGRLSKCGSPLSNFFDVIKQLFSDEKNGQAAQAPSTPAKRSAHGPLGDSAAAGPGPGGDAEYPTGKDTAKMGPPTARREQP

SMILES	target or system	test	system	conditions	scale	endpoint	result
Cn1cncc1-c1c(F)cncc1NC(=O)c1c(N)nn2cc(F)cnc12			patients with advanced solid tumours	130 mg once daily, first treatment cycle		grade ≥3 anaemia incidence	11%
Nc1cc(C(F)(F)F)c(-c2cc(N3CCOCC3)nc(N3CCOCC3)n2)cn1			advanced solid tumour patients	dose not given, continuous daily dosing	baseline: patients	grade ≥3 rash	7%
CCN1CCN(Cc2ccc(Nc3ncc(F)c(-c4cc(F)c5nc(C)n(C(C)C)c5c4)n3)nc2)CC1			patients	dose not given, monotherapy		grade ≥3 anemia incidence	4%
CC(=O)O[C@H]1C(=O)[C@@]2(C)[C@H]([C@H](OC(=O)c3ccccc3)[C@]3(O)C[C@H](OC(=O)[C@H](O)[C@@H](NC(=O)c4ccccc4)c4ccccc4)C(C)=C1C3(C)C)[C@]1(OC(C)=O)CO[C@@H]1C[C@@H]2O			advanced esophageal cancer patients	80 mg/m2 weekly, monotherapy		grade 3 peripheral neuropathy incidence	3%
C[C@@H]1COCCN1c1cc([C@]2(O)C[C@H]3CC[C@@H](C2)O3)c2cnn(-c3cc[nH]n3)c2n1			patients with advanced solid tumours	dose not given		grade ≥3 anaemia incidence	32%
Nc1cc(C(F)(F)F)c(-c2nc(N3CCOCC3)nc(N3CCOCC3)n2)cn1	BRSK2 (Homo sapiens, UniProt Q8IWQ3)	enzyme activity		10 µM	baseline: untreated	remaining activity	61%
Nc1ccn([C@@H]2O[C@H](CO)[C@@H](O)C2(F)F)c(=O)n1			metastatic pancreatic cancer patients	dose not given		grade 3 or higher diarrhoea	1%
CS(=O)(=O)N1CCN(Cc2cc3nc(-c4cccc5[nH]ncc45)nc(N4CCOCC4)c3s2)CC1			advanced solid tumour patients	15 to 450 mg, continuous daily dosing	baseline: patients	grade ≥3 rash	8%
Cc1cc(C)c(CNC(=O)c2cc(Cl)c3c(c2C)O[C@@](C)([C@H]2CC[C@H](N(C)C)CC2)O3)c(=O)[nH]1			relapsed/refractory ATLL patients	200 mg/day, without fluconazole		grade ≥3 TEAE incidence	58.3%

For quick reference, copied from above:
SMILES	target or system	test	system	conditions	scale	endpoint	result
Nc1cc(C(F)(F)F)c(-c2cc(N3CCOCC3)nc(N3CCOCC3)n2)cn1			advanced solid tumour patients	dose not given, continuous daily dosing	baseline: patients	grade ≥3 rash	7%
